Assay results of several laboratories.
Numbers after ± are the reported error.
AURKA: Aurora kinase A (AURKA, Homo sapiens, UniProt O14965)
NOD2: Nucleotide-binding oligomerization domain-containing protein 2 (NOD2, Homo sapiens, UniProt Q9HC29)
Heat shock protein 90 N-terminal domain: Heat shock protein 90, N-terminal domain (Plasmodium falciparum, UniProt Q8IC05)
Thiamine transporter ThiT: Thiamine transporter ThiT (Lactococcus lactis subsp. cremoris, UniProt A2RI47)

The Kd of `Cc1oc2c(O)c3c(c(O)c2c1C(=O)N1CCC(N)C1)C(=O)c1ccccc1C3=O` (centres unmarked) is reported as 55.7 µM (AURKA; binding, BLI).
`CC(=O)N[C@@H]1[C@@H](O[C@@H]2O[C@H](C(=O)O)[C@@H](O[C@@H]3O[C@H](COS(=O)(=O)O)[C@@H](OS(=O)(=O)O)[C@H](O[C@@H]4O[C@H](C(=O)O)[C@@H](OS(=O)(=O)O)[C@H](OS(=O)(=O)O)[C@H]4OS(=O)(=O)O)[C@H]3NC(C)=O)[C@H](OS(=O)(=O)O)[C@H]2OS(=O)(=O)O)[C@H](OS(=O)(=O)O)[C@@H](COS(=O)(=O)O)O[C@H]1N=[N+]=[N-]` gave a Kd of 3.4 µM (Stromal cell-derived factor 1 (CXCL12, Homo sapiens, UniProt P48061); ligand displacement, FP).
`Cc1ncsc1-c1ccc([C@@H]2CCCCCCNC(=O)C[C@@H]3N=C(c4ccc(cc4)OCCCCCC(=O)N[C@@H](C(C)(C)C)C(=O)N4C[C@H](O)C[C@H]4C(=O)N2)c2c(sc(C)c2C)-n2c(C)nnc23)cc1` gave a Kd of 0.0069 µM (BRD4/VHL, BD2; with elongins B/C (Homo sapiens, UniProt O60885+P40337); ternary complex binding, biolayer interferometry; added: VHL-ElonginC-ElonginB).
With `CC(C)c1c(-c2cccc3[nH]ccc23)[nH]c(C(=O)O)c1-c1c(Cl)ccc2[nH]ccc12` the Kd was 2.8 ± 0.45 µM (BMI1/RNF2 (Homo sapiens, UniProt P35226+Q99496)).
`[3H]CC([3H])C(=O)NCc1cc(C(=O)NCCN2CCC(N3CCC(n4c(=O)[nH]c5ccccc54)CC3)CC2)cc(C(=O)NCCN2CCN(CCCCC3CCN(CC(=O)N4c5ccccc5NC(=O)c5ccccc54)CC3)CC2)c1` (centres unmarked) has a Kd of 7.2e-05 ± 2e-06 µM (Muscarinic acetylcholine receptor M2 (CHRM2, Homo sapiens, UniProt P08172); association and dissociation kinetics; CHO cell homogenates; 23 °C).
For `C[C@H](N)C(=O)N[C@H](CCC(=O)O)C(N)=O`, the Kd was 0.002 to 0.01 µM (NOD2; binding; pH 6.5).
With `Nc1ncnc2c1ncn2[C@@H]1O[C@H](CO)[C@@H](O[C@H]2O[C@H](CO)[C@@H](OP(=O)(O)O)[C@H](OP(=O)(O)O)[C@H]2O)[C@H]1O` the Kd was 0.0105 µM (Inositol 1,4,5-trisphosphate-gated calcium channel ITPR1, N-terminal region (Itpr1, Rattus norvegicus, UniProt P29994, del318-332); [3H]IP3 competition binding; N-terminal fragment).
The Kd of `Cc1cc(C)c(S(=O)(=O)N(CC(=O)O)c2ccc(Nc3ccnc(N4CCCC4)n3)cc2)c(C)c1` is reported as 6.53 µM (Heat shock protein HSP 90-alpha (HSP90AA1, Homo sapiens, UniProt P07900, R46A); binding, biolayer interferometry; mutant R46A).
For `COC(=O)CC[C@@H](NC(=O)[C@H](C)NC(=O)[C@@H](C)O[C@H]1[C@H](O)[C@@H](CN)OC(O)[C@@H]1NC(C)=O)C(N)=O` (some centres unmarked), the Kd was 0.012 to 0.024 µM (NOD2; binding, SPR; pH 6.5).
With `C[n+]1cc(NC(=O)c2ccc3ccc4ccc(C(=O)Nc5cc6ccccc6[n+](C)c5)nc4c3n2)cc2ccccc21` the Kd was 0.57 µM (MYC promoter G4 DNA; binding, native ESI-MS; 100 mM trimethylammonium acetate; 1 mM KCl).
The Kd of `COc1ccc(CNC(=O)CC[C@@H](C)[C@H]2CC[C@H]3[C@@H]4CC[C@@H]5CC(=O)CC[C@]5(C)[C@H]4CC[C@]23C)cc1` is reported as 0.618 µM (Nuclear receptor ROR-gamma (RORC, Homo sapiens, UniProt P51449); binding, MST).
For `CCOc1cccc(C(=O)Nc2ccc(-c3nc4ccccc4[nH]3)cc2)c1`, the Kd was 0.21 µM (Heat shock protein 90 N-terminal domain; binding, SPR).
For `O=C1c2ccccc2C(=O)c2c1c(O)c1nc(Cc3ccccc3)[nH]c1c2O`, the Kd was 23.3 ± 3 µM (AURKA; binding, tryptophan fluorescence quenching; pH 7.5, 25 °C, AurA 3.0 µM).
The Kd of `Cc1ncc(Cc2csc(C=NNC(=O)[C@@H](N)Cc3c[nH]c4ccccc34)c2C)c(N)n1` (mixture of isomers) is reported as 44.5 µM (Thiamine transporter ThiT; binding, ITC).
With `CN(C)CCNC(=O)c1cccc2c(NCCCCc3c(N)nc(N)nc3N)c3ccccc3nc12` the Kd was 162 ± 8 µM (RNA with C–C mismatch; binding, ITC; 25 °C, 2).
`O=c1c(OS(=O)(=O)O)c(-c2ccc(OS(=O)(=O)O)c(OS(=O)(=O)O)c2)oc2cc(OS(=O)(=O)O)cc(OCCCOc3cc(OS(=O)(=O)O)cc4oc(-c5ccc(OS(=O)(=O)O)c(OS(=O)(=O)O)c5)c(OS(=O)(=O)O)c(=O)c34)c12` has a Kd of 36.9 µM (N-acetylmuramoyl-L-alanine amidase (PGLYRP2, Homo sapiens, UniProt Q96PD5); microscale thermophoresis).
For `CCN(CC)CCO/N=C1/C=C2CCC3C(CC[C@]4(C)/C(=C/c5ccccn5)CCC34)[C@@]2(C)CC1` (some centres unmarked), the Kd was 8.6 µM (Steroid 17-alpha-hydroxylase/17,20 lyase (CYP17A1, Homo sapiens, UniProt P05093); binding, absorbance).
With `NC(Cc1ccc(F)cc1)C(=O)O` (racemic) the Kd was 600 µM (grsA (Aneurinibacillus migulanus, UniProt P0C061); binding, ITC).
The Kd of `CNc1ccccc1C(=O)O[C@H]1C[C@H](n2cnc3c(N)ncnc32)O[C@@H]1COP(=O)(O)OP(=O)(O)O` is reported as 4.87 ± 0.33 µM (Unconventional myosin-Va (Gallus gallus, UniProt Q02440, D297C/G292C/I296C/S293C/V295G); binding, ligand, stopped-flow FRET; 4 °C, added: 4 mM EDTA).
`COc1cc(C(=O)NS(=O)(=O)c2ccc(C(F)(F)F)cc2)ccc1Cc1cn(C)c2ccc(NC(=O)OC3CCCC3)cc12` has a Kd of 4.6 µM (Tumor necrosis factor receptor superfamily member 1A, extracellular domain (Homo sapiens, UniProt P19438); binding, 19F NMR; PBS; pH 7.4).
`Cc1ncc(/C=N/NC(=O)c2cc3c(s2)CCCC3)cn1` has a Kd of 55 µM (1-deoxy-D-xylulose-5-phosphate synthase (dxs, Deinococcus radiodurans, UniProt Q9RUB5); binding, SPR).
`CC[C@H](C)[C@H](NC(=O)[C@H](Cc1c[nH]cn1)NC(=O)[C@H](CC(N)=O)NC(=O)[C@@H](N)[C@@H](C)O)C(=O)N[C@@H](Cc1ccc(OP(=O)(O)O)cc1)C(=O)N[C@@H](CO)C(=O)N[C@@H](CC(N)=O)C(=O)N[C@@H](CC(C)C)C(=O)N[C@@H](C)C(=O)N[C@@H](CC(N)=O)C(=O)N[C@@H](CS)C(=O)N[C@@H](CO)C(=O)N[C@@H](CC(=O)O)C(=O)O` has a Kd of ~1 µM (SH2 domain-containing protein 1B, SH2 domain (SH2D1B, Homo sapiens, UniProt O14796); binding, fluorescence polarization; phosphopeptide probe).
For `Cc1nn(CCO)c2ncc(C(=O)c3cc(Cl)ccc3O)cc12`, the Kd was 3.35 µM (Heat shock protein 90 N-terminal domain; binding, SPR).
`Cc1ncc(Cc2csc(C=NNC(=O)Cc3cccnc3)c2C)c(N)n1` (mixture of isomers) gave a Kd of 3.02 µM (Thiamine transporter ThiT; binding, ITC).
`CCCC[C@@H]1NC(=O)[C@H](Cc2ccc(O)cc2)NC(=O)[C@@H]2CCCN2C(=O)[C@H](CC(=O)O)NC(=O)[C@H](C)NC(=O)[C@H](Cc2ccccc2)NC(=O)[C@@H]2CSCCC(=O)N3CN(CN(C3)C(=O)CCSC[C@@H](C(=O)N[C@@H](C)C(N)=O)NC1=O)C(=O)CCSC[C@H](NC(C)=O)C(=O)N[C@@H](CC(C)(C)C)C(=O)N1CCC[C@H]1C(=O)N[C@@H](CCC(=O)O)C(=O)N[C@H](CCCCNC(=O)CCc1cn(CCOCCOCCOCCN(CCOCCOCCOCCC(=O)N[C@H]3CSCCC(=O)N4CN5CN(C4)C(=O)CCSC[C@H](NC(=O)[C@@H](CC(=O)O)NC(=O)[C@H](Cc4cccc6ccccc46)NC(=O)[C@@H]4CCCN4C3=O)C(=O)N[C@@H](CCSC)C(=O)N[C@@H](CCCCNC(=N)N)C(=O)N[C@@H](CC(=O)O)C(=O)N[C@@H](Cc3c[nH]c4ccccc34)C(=O)N[C@@H](CO)C(=O)N[C@@H]([C@@H](C)O)C(=O)N3CCC[C@H]3C(=O)N3C[C@H](O)C[C@H]3C(=O)N[C@@H](Cc3c[nH]c4ccccc34)C(=O)N[C@H](C(N)=O)CSCCC5=O)CCOCCOCCOCCn3cc(CCC(=O)NCCCC[C@H]4NC(=O)[C@H](CCC(=O)O)NC(=O)[C@@H]5CCCN5C(=O)[C@H](CC(C)(C)C)NC(=O)[C@@H](NC(C)=O)CSCCC(=O)N5CN6CN(C5)C(=O)CCSC[C@H](NC(=O)[C@H](Cc5ccc(O)cc5)NC(=O)[C@@H]5CCCN5C4=O)C(=O)N[C@@H](Cc4ccccc4)C(=O)N[C@@H](C)C(=O)N[C@@H](CC(=O)O)C(=O)N4CCC[C@H]4C(=O)N[C@@H](Cc4ccc(O)cc4)C(=O)N[C@@H](CCCC)C(=O)N[C@H](C(=O)N[C@@H](C)C(N)=O)CSCCC6=O)nn3)nn1)C(=O)N1CCC[C@H]1C(=O)N[C@@H](Cc1ccc(O)cc1)C(=O)N2` — result for Kd: “no binding” (Tumor necrosis factor receptor superfamily member 9 (Tnfrsf9, Mus musculus, UniProt P20334); SPR; added: captured on human Nectin-4).
`Cc1nn(-c2cccc(N)c2)c(=O)c2cnc(Nc3ccc(N4CCNCC4)cc3)nc12` gave a Kd of 10.2 µM (pre-let-7d RNA; binding, SPR).
`N=C(NO)NCCC[C@H](N)C(=O)O` gave a Kd of 13 µM (Arginase (Schistosoma mansoni, UniProt Q6WVP6); isothermal titration calorimetry; pH 8.5, second weaker binding site).
With `C[C@H](N)C(=O)N[C@@H](CCCNC(=N)N)C(=O)N[C@H](C(=O)N[C@@H](CCCC[N+](C)(C)C)C(=O)N[C@@H](CCC(N)=O)C(=O)N[C@H](C(=O)N[C@@H](C)C(=O)N[C@@H](CCCNC(=N)N)C(=O)N[C@@H](CCCCN)C(=O)N[C@@H](CO)C(=O)O)[C@@H](C)O)[C@@H](C)O` the Kd was > 500 µM (Autoimmune regulator, PHD1 domain (AIRE, Homo sapiens, UniProt O43918, D297A); tryptophan fluorescence titration; pH 6.3, 20 °C).
`N=C(N)NCCC[C@H](NC(=O)[C@H](CS)NC(=O)[C@H](Cc1ccc(O)cc1)NC(=O)[C@H](Cc1c[nH]c2ccccc12)NC(=O)[C@H](CCCNC(=N)N)NC(=O)[C@H](Cc1c[nH]c2ccccc12)NC(=O)[C@H](Cc1c[nH]cn1)NC(=O)CNC(=O)CN)C(=O)NCC(=O)NCC(=O)N[C@@H](CCCCN)C(N)=O` has a Kd of 2.5 ± 0.8 µM (supercoiled pUC19 plasmid DNA; tryptophan fluorescence; per base pair, 1 mM TCEP).
For `O=C(NO)c1cnc(NC2(c3cccc(F)c3)CCCCC2)nc1`, the Kd was 0.398 µM (Protein deacetylase HDAC6 (HDAC6, Homo sapiens, UniProt Q9UBN7); chemoproteomic pulldown; SW-620/MV4-11 lysate; 1 h, 30 °C).
For `CCCCCCCCCc1nc2cc(Cl)ccc2c(=O)n1CCCN`, the Kd was 6.6 ± 0.2 µM (Staphylococcus aureus membranes; membrane binding).
With `COc1c2[nH]c(=O)c(=O)c2c(OC)c2c(=O)c3ccccc3c(=O)c12` the Kd was 10.7 ± 0.9 µM (AURKA; binding, tryptophan fluorescence quenching; pH 7.5, 25 °C, AurA 3.0 µM).

Some of these lines once more:
The Kd of `COc1ccc(CNC(=O)CC[C@@H](C)[C@H]2CC[C@H]3[C@@H]4CC[C@@H]5CC(=O)CC[C@]5(C)[C@H]4CC[C@]23C)cc1` is reported as 0.618 µM (Nuclear receptor ROR-gamma (RORC, Homo sapiens, UniProt P51449); binding, MST).
The Kd of `CNc1ccccc1C(=O)O[C@H]1C[C@H](n2cnc3c(N)ncnc32)O[C@@H]1COP(=O)(O)OP(=O)(O)O` is reported as 4.87 ± 0.33 µM (Unconventional myosin-Va (Gallus gallus, UniProt Q02440, D297C/G292C/I296C/S293C/V295G); binding, ligand, stopped-flow FRET; 4 °C, added: 4 mM EDTA).
`O=c1c(OS(=O)(=O)O)c(-c2ccc(OS(=O)(=O)O)c(OS(=O)(=O)O)c2)oc2cc(OS(=O)(=O)O)cc(OCCCOc3cc(OS(=O)(=O)O)cc4oc(-c5ccc(OS(=O)(=O)O)c(OS(=O)(=O)O)c5)c(OS(=O)(=O)O)c(=O)c34)c12` has a Kd of 36.9 µM (N-acetylmuramoyl-L-alanine amidase (PGLYRP2, Homo sapiens, UniProt Q96PD5); microscale thermophoresis).
For `CCN(CC)CCO/N=C1/C=C2CCC3C(CC[C@]4(C)/C(=C/c5ccccn5)CCC34)[C@@]2(C)CC1` (some centres unmarked), the Kd was 8.6 µM (Steroid 17-alpha-hydroxylase/17,20 lyase (CYP17A1, Homo sapiens, UniProt P05093); binding, absorbance).
